Experimental data from different studies.
Numbered parts are unrelated; each lists some results of a single study. Changes are numbered by the printed parent chain.

Sample 1 — method: RNA Bind-n-Seq; form: RNA; matrix: in vitro; concentration: 100 nM; reference: input RNA pool; reading: higher = stronger binding; quantity: bound/input enrichment
Target: RING finger protein unkempt homolog, zinc fingers 1-6, SBP tag (UNK, Homo sapiens, UniProt Q9C0B0, residues 30-357)
UniProt Q9C0B0, sequence (30-357, looked up): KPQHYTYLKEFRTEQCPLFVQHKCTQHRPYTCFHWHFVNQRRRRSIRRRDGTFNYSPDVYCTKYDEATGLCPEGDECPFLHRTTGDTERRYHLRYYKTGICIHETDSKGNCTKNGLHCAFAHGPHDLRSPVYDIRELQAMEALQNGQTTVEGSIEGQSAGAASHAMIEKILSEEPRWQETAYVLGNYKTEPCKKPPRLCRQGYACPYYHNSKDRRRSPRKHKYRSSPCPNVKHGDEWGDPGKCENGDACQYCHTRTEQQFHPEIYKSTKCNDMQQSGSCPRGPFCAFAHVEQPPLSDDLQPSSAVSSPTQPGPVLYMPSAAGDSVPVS
Notes: RNA with constant flanks, vertebrate orthologous sites, ends assumed
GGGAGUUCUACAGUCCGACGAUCAUUGCCUACAAUAAUGAAAACCUACAGGAAUUUUUUAUUUUUCAUUUUCCCCUUAGGCAUAGUCUUUUUUCCCCAGGCAGAUCAUUCUGAGUGUGCGAGUGUGUGUGCACAUGUUACAAACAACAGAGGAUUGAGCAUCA: 0.785 ratio
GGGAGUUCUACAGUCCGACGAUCAAAUUCCCCCAUUGUCACUGAGAACCACCAAAUCUGACUUUUACAUUUGGUCUCAGAAUUUAGGUUCCUGCCCUGUUGGUUUUUUUUUUUUUUUUUAGAAAAAAAAACAAAACACCCCAGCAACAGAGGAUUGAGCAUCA: 0.323 ratio
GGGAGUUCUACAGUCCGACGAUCGGGGAUGGGGGGUGGGUAAGGGAUGUGGAUGAUAGGAUGUUAUUGGGAUUUUUAAGUGUUCCAGGGGUGGUUUUCCUUUUUCCUGUUUUUUUGUUUGUUUGUUUGUUUGUUUCUGUUCUUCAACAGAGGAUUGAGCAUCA: 1.06 ratio
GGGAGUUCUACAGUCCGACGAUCACAGGAGCAGCAUAGGCUGUUUGAGCUUUGGGGAAACGAGCUUUGCUUUUUAUAUUUAACUAGGAUACUUUUACGUGAUGGGUGCUUUGAGUGUGAAUGCAGCAGGCUCUUGUUUCCGAGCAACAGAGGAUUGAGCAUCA: 0.948 ratio
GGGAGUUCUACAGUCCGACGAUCGGUCAUGUAUAGCAAUUAGAGUGGGUUGCCUUUCUACUUCUCCCGAGAAGAAAUCCCAAAUAGAUUCCUUUCAUGUCAGAUUAUACUGUUCUGAUUUUCUUUUCUAUUAUUUUUACAUAUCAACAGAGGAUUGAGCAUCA: 0.772 ratio
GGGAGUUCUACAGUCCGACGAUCCCACUCAUAGGCAAUGUAUAUCUAACAGUGGUUGCAGAACUGAACUUGCACUUGAAUAGGAUUAACUUGUUACAAUUAAGCUACCCAGGUUUCGUUAAACCUGAGAGGCGCUGCUGCGUCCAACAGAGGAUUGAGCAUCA: 0.424 ratio
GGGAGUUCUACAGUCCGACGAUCUGAAAAUAGCUUCUGCUCCAUUGAGAGUAAAAAUAGUCCCAUGAAUAGAAAACUCCUAAGUAACUAUUUUUUGAAUAAAAAACGUUAAAUUUUGUAAAUCACCUGCUGCCACAAUACAACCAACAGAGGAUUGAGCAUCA: 0.91 ratio
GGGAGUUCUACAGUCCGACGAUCCACAAUCUCUACUUAAGUAGGUAUUUACAUACCACAUUAAGCCUUCAUUUUACAUAUUUACAGCUUUUCUGUUUUACAGAUGAGACAAAAGAAUUUCAUGCUUAAAGUUAAAUGUGGUCUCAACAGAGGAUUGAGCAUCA: 0.379 ratio
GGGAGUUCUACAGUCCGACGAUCUCAUUGUACUGCAAAAAUCAUCCUCGUUCUAAAUUAGCCACAGUGAUAACUAGUCUGCAGUAGUAGAAGCAUUUACCUUUUAAAUUACCUGCUUUGUCUGAUACCUGAAACACAUCAAAACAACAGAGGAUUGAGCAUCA: 1.05 ratio
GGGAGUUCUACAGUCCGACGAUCAAACUUGUAUUGUGGCAUAUAGUCAACAUGGAAGUAGACCAGCUCUGCCGAUUUGAAAUUUAGAUUUUUUAAUUAUGUACUGGGGACAGGUUUUUGUCGCUUUACAUUGCUUCCUAGUUUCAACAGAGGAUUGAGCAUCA: 3.95 ratio
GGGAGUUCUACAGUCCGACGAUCUCCCAGCACUUUGAUAAAAAGUGUGGACUGGUUGCUCGUAUUUUCCUUAUUCUUUUUAAUUAGUUUUAUUAUGUAUGCUACCAUUCGAACUGAGAGCAUUCGGUGGCUAAUUCCAGGACACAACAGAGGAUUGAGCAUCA: 1.48 ratio

Sample 2 — method: RNA Bind-n-Seq; form: RNA; matrix: in vitro; concentration: 365 nM; reference: no-protein control; reading: higher = stronger binding; quantity: RBNS enrichment (R)
Target: RNA binding protein fox-1 homolog 2, RRM domain, GST-SBP tag (RBFOX2, Homo sapiens, UniProt O43251-10, residues 100-194)
Notes: natural RNA segment, single round, ends assumed
Residues (chain): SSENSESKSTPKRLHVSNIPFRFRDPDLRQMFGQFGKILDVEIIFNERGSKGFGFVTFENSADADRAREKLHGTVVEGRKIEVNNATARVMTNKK
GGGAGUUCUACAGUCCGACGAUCAUGUUGCUAAUAUUAAGGCUUCAGGGCUACUUUUAUCAACAUGCCUGUCUUCAAGAUCCCAGUUUAUGUUCUGUGUCCUUCCUCAUGAUUUCCAACCUUAAUACUAUUAGUGGAAUUCUCGGGUGCCAA: 0.582
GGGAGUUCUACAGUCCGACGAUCUGUGUGUGUGUGUACUCUGUGUGUGUAUGAGAGAGAGAAAUGCUAACCUUGUAGCAUGUGAAGAAUGUCUGUACCUUGAUACGAUAGUUACAUAAUCAGUAUAUUUGGUUUGGAAUUCUCGGGUGCCAA: 18.2
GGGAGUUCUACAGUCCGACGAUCGCUUCUAAAGUGUUCAUCCUGAUCACCUGAAGGGUGUGAUUUUAGCAGAGCUGAGAGUGGCUGGUGGUGAUGUGGCCCCACCCCCUGAGGCACAGAGAAGAGGGAGACAGUGGAAUUCUCGGGUGCCAA: 0.674
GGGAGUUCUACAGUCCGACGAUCCUCCUGAUUUCCCUAAGGAGCCUGGGAUGAUGUUGGUCAAAUGACCUAGAAACAAGGAUUCUACCUGAACUGAAAGGACUGUGUGACCUCCCCCAAGCCAACCACUUUCAUGGAAUUCUCGGGUGCCAA: 0.323
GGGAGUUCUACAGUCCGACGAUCGCCUUAGAUUUUACACACACUCCACAGCCAAGCACUGCCACGGUCCUCCAGGACCUGGGAAGCAAAGGCACAGGCCCACGGUGGCCAGCCAUUGUGGUGCCGCCCCAGCUUGGAAUUCUCGGGUGCCAA: 0.195
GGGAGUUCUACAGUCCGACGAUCAAGUAAUGAUUCCUCUAAAGGGAAAGGAAGUUUUAAGAGGGAGGCUUGGACAAUCUUAGUAUUUACACGUGAGAUGAAAUGAAGAGUCCCGUGUGCUGCUCUGUGUGCAAUGGAAUUCUCGGGUGCCAA: 1.02
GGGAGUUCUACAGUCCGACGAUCUAAAAGGUUGUUUGGAUUUUCUACGUACGGUAUAUAGCGUAUUUGGAUUUUCUUUUAAACUAAACCUUUCUACUCGCCCGGAAAAAUUCCUUGGAGAUAUCGAAGUAUGGUGGAAUUCUCGGGUGCCAA: 0.351
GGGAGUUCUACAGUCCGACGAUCUGUCAGCCAGAAAAAAGGAGAGGUCAAAGGUCUGUUCUUCCUGCUACACAGGGUCUGGUUUUAAAAGUAGAGGGAAACCUCUCCUCCCCUGGUCUUUGUAGCCAUCUUUGUGGAAUUCUCGGGUGCCAA: 0.535
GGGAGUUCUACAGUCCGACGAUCUCAGAGCUCCCAAGCCUUCCCCCACCACCUCACUCAAGUGCCCCUGAAAUCCCUGCCAGACGGCUCAGCCUGGUCUGCGGUAAGGCAGGGAGGCUGGAACCAUUUCUGGGUGGAAUUCUCGGGUGCCAA: 0.559
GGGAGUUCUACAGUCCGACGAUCAGCAAGAUCAUGCCUUCUCUGUCUGGAAGAGGCAACAGUUUGGAGAUCCUGUCAUCAUGGGACGUCAGUGUUUUUUGUUAAAGGGGACAUACAUGGGGGCAUGUCAUGGGUGGAAUUCUCGGGUGCCAA: 0.914
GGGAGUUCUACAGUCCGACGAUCGUAGGAACAGCAUUUCUUACAACCGCCCCAGGACCUGAUUUGGCAAGACUGACUAGCUCUCUUUAGCCCUCUGGUGAUUCCUUCACUAUCAUGUCAACCUGGCUUAUCAUUGGAAUUCUCGGGUGCCAA: 0.294
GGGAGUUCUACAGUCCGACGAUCUUAGUUUUCUUUGCCCUUUCCAUGUUGUAGGCUACAUACAUCUCCAUGUUCAUUCUCAUGUUUUUUGUCAGUGUGACCUUCUCAUGCCCUGUCAUGAUAGAGCUGUAAUUUGGAAUUCUCGGGUGCCAA: 0.35

Sample 3 — target: CCNE1, cyclin fold, Cln2 fusion (human); method: yeast growth competition, sequencing; matrix: yeast; notes: strong parent motif; reference: not given; reading: higher = stronger binding; quantity: normalised enrichment score
Parent: CDKN1B docking peptide (human); PSACRNLFGPVDH; partner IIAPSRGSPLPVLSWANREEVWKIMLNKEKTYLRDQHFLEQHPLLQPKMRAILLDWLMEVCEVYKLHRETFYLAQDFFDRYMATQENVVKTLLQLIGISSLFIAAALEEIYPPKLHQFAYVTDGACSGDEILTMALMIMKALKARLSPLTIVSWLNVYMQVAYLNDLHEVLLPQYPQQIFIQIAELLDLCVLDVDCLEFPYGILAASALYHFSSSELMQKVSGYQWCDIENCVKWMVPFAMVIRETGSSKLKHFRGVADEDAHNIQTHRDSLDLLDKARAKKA
P1N: 4.16
G9Y: 1.21
F8N: 0.261
R5C: -0.117
C4G: -0.415
N6C: 2.17
P1D: 2.31
S2V: 1.74
N6R: 4.54
C4S: 0.774
A3W: 3.09
V11L: 2.72
F8W: 2.23
C4P: 0.123
G9D: 1.98
N6F: 0.592
P10E: 3.1
G9C: 0.868
L7G: 0.357
A3Q: 0.939
G9P: 1.78
D12K: 2.5
F8D: 0.0012
C4Q: 0.277
S2G: 2.69

Sample 4 — target: CREBL2, bZIP domain (human); method: DHFR protein complementation; matrix: yeast; reference: wild-type JUN-FOS pair; reading: higher = stronger binding; quantity: binding fitness
Notes: single substitutions, most at no-binding floor
Parent: JUN, bZIP domain (human); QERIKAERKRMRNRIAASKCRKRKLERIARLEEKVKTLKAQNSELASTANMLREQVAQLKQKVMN; partner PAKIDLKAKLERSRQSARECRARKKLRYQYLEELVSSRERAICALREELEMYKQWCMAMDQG
L52M: -1.53 natural log
E33Q: -1.41 natural log
K39P: -1.5 natural log
Q55H: -1.53 natural log
N42P: -1.49 natural log
L45Q: -1.51 natural log
N42Y: -1.58 natural log
S43Y: -1.44 natural log
L31Q: -1.56 natural log
E32T: -1.34 natural log
R30T: -1.35 natural log
T37S: -1.44 natural log
Q55Y: -1.5 natural log
A57W: -1.52 natural log
R30L: -1.36 natural log
K39L: -1.54 natural log
